Published values of several laboratories.
Values joined by “and” are separate records of one study, mostly repeats; a detail may differ. Numbers after ± are the reported error.

Under “ACTH level change”, `N#Cc1ccc2c(c1)[C@H]1CCCN(C(=O)c3ccc4[nH]cnc4c3)[C@H]1C2` is recorded as 0.3 pmol/L (human; 360 mg, end of trial; reference: baseline).
`Nc1ncn([C@H]2C[C@H](O)[C@@H](CO)O2)c(=O)n1` — result for “mean deviation from nominal”: 1.42% (processed mouse plasma; 1.2 ng/mL, 24 h, 4 °C, re-injection stability).
For `Cc1nc(-c2ccc(OCC(C)C)c(C#N)c2)sc1C(=O)O`, “subjects with ALT increase” read 2.6% (healthy Chinese subjects, fasted; oral, 40 mg single dose).
The body weight of `O=C(O)CSc1nnc(Br)n1-c1ccc(C2CC2)c2ccccc12` is reported as 29.3 g and 24.6 g and 31.7 g and 29.2 g and 28.9 g and 23.9 g (KM mouse, chronic hyperuricaemia model; dose not given, day 7).
`Cc1cc(-c2nccc3c2ccn3CC(=O)Nc2ccc(-c3cnccn3)cn2)ccn1`: “subjects with any TEAE” 88.9% (human; 15 mg once daily, multiple ascending dose).
`CCCCC[C@H]1CC[C@H](c2ccc(OCC)c(F)c2F)CC1` — result for “median placental accumulation”: 195 ng/g (rat, placenta; 5000 ng/mL in perfusate, high dose, mixture of 21 LCMs).
For `CNC(=O)c1ccc(-c2cnc3ncc(Cc4ccc5ncccc5c4)n3n2)cc1F`, the Vertigo patients was 0% (Japanese patients; oral, 400 mg twice daily, grade 3/4).
With `Cc1ncc(CO)c(C(=O)O)c1O` the AUC(0-12h) was 39.1 ± 8.5 ng·h/mL (White men, plasma; dose not given).
`N#CCNC(=O)c1ccc(-c2ccnc(Nc3ccc(N4CCOCC4=O)cc3)n2)cc1` — result for “AUCinf geometric mean ratio”: 112% (healthy volunteers, plasma; dose not given, together with: rifampin single-dose; reference: with rifampin over alone).
For `C[C@@H]1COCCN1c1cc(C2([S@](C)(=N)=O)CC2)nc(-c2cc[nH]c3nccc2-3)n1`, the Paronychia incidence was 0% (Japanese advanced solid tumour patients; oral, 240 mg twice daily, CTCAE grade ≥3).
`COc1cccc(-c2n[nH]c(SCc3ccccn3)n2)c1OC` has a plasma concentration of 780 ng/mL (Sprague-Dawley rats, both sexes; oral dietary, 30 mg/kg/day, day 90, 0 h).
For `Cc1nc2cccc(OCC(C)(C)C(=O)NC(C)C)c2c(N)c1C(=O)O`, the AUClast ratio was 2.68 ± 1.88 (Sprague-Dawley rat, male, plasma; oral, 10 mg/kg, day 7 over day 1, 7-day repeated dosing; reference: day 7 over day 1).
`C=CCN1CC(=O)N2[C@@H](Cc3ccc(O)cc3F)C(=O)N(Cc3cccc(N4CC(N5CCN(CC)CC5)C4)n3)C[C@@H]2N1C(=O)NCc1ccccc1` gave a treatment-related nausea of 83.3% (advanced solid tumour patients; oral, 100 mg twice daily, any grade, dose-escalation).
`COc1cc2nccc(Oc3ccc(NC(=O)C4(C(=O)Nc5ccc(F)cc5)CC4)cc3)c2cc1OC` gave a Ctrough of 950 ng/mL (patients with relevant toxicity (grade 3-4 or dose reduction), plasma; oral, dose not given, mean).
`O=[N+]([O-])c1ccc(-c2ccc(O)cc2)c2cccnc12` has an AUC(0-t)/AUC(0-inf) ratio of 0.998 (ICR mouse, male, plasma; intravenous, 1 mg/kg).
Under “treatment-emergent adverse events”, `O=C(Nc1nc2cccc(-c3ccc(CN4CCS(=O)(=O)CC4)cc3)n2n1)C1CC1` is recorded as 0% (refers to: first degree atrioventricular block; human rheumatoid arthritis patients; oral, 30 mg once daily, 4 weeks, regardless of relatedness).
The kinetic solubility of `COc1cc2[nH]c(C)c(-c3cc(C(F)(F)F)cc(C(F)(F)F)c3)c(=O)c2cc1Cl` is reported as less than 2 µM (pH 7.4).
Under “adverse event incidence”, `NCCONC(=O)[C@@H]1CC[C@@H]2CN1C(=O)N2OS(=O)(=O)O` is recorded as 0% (refers to: leading to dose reduction; healthy Chinese men; intravenous, 1 g, treatment-related).
`COc1ncc(-c2nc3c(n2C(C)C)[C@H](c2ccc(Cl)cc2)N(c2cc(Cl)cn(C)c2=O)C3=O)c(OC)n1` gave a median Tmax of 3.5 h (human patients, plasma; oral, 100 mg, high-dose arm, cycle 1 day 1).
`N#C[C@@]1(c2ccc3c(N)ncnn23)O[C@H](CO)[C@@H](O)[C@H]1O` has a recovery of 93.6% (plasma protein binding; monkey plasma; 10 µM, time not given).
The kinetic solubility of `CCCCC/C=C\C/C=C\CCCCCCCC(=O)O.Cc1cc(/C=C/C#N)cc(C)c1Nc1ccnc(Nc2ccc(C#N)cc2)n1` is reported as roughly 150 mg/mL (Capmul MCM C8).

A few entries again:
`Nc1ncn([C@H]2C[C@H](O)[C@@H](CO)O2)c(=O)n1` — result for “mean deviation from nominal”: 1.42% (processed mouse plasma; 1.2 ng/mL, 24 h, 4 °C, re-injection stability).
`COc1ncc(-c2nc3c(n2C(C)C)[C@H](c2ccc(Cl)cc2)N(c2cc(Cl)cn(C)c2=O)C3=O)c(OC)n1` gave a median Tmax of 3.5 h (human patients, plasma; oral, 100 mg, high-dose arm, cycle 1 day 1).
`Cc1cc(-c2nccc3c2ccn3CC(=O)Nc2ccc(-c3cnccn3)cn2)ccn1`: “subjects with any TEAE” 88.9% (human; 15 mg once daily, multiple ascending dose).
